Results of several laboratories.
A part holds a random share of what one study measured. Substitutions count along the parent as printed.

Sample 1
Target: CCNE1, cyclin fold, Cln2 fusion (human)
Method: yeast growth competition, sequencing
Sample: yeast
Setting: strong parent motif
Baseline: not given
Direction: higher = stronger binding
Starting sequence: INSM1 docking peptide (human); PKAIRKLHFEDEV; partner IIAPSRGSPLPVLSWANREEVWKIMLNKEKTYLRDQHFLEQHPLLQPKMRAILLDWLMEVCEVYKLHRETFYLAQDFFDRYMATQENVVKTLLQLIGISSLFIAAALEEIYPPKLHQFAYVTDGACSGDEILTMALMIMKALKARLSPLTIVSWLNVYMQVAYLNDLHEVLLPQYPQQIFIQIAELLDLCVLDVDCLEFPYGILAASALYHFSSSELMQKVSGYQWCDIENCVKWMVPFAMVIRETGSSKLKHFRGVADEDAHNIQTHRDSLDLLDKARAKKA
Under “normalised enrichment score”, `PKAIRKLHFEPEV [D11P]` is recorded as 2.63.
`PKAIRKLHFEDHV [E12H]`: “normalised enrichment score” 3.73.
Under “normalised enrichment score”, `PKAIRKLHFEDIV [E12I]` is recorded as 3.87.
Under “normalised enrichment score”, `PKDIRKLHFEDEV [A3D]` is recorded as -0.299.

Sample 2
Target: RNA binding protein fox-1 homolog 2, RRM domain, GST-SBP tag (RBFOX2, Homo sapiens, UniProt O43251-10, residues 100-194)
Method: RNA Bind-n-Seq
Molecule type: RNA
Sample: in vitro
Concentration: 365 nM
Setting: natural RNA segment, single round, ends assumed
Baseline: no-protein control
Direction: higher = stronger binding
Construct (chain): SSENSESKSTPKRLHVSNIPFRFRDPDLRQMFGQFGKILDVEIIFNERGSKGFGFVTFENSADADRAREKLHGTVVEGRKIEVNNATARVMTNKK
For `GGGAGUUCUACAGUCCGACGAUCAAAGGGGUGUGGCAGCUCCCAUCAGGUCUGGAGGUGGUCUAUAAGCACAGUUGACAGUUGUGCAUUGGGAUGGGUGGAGAAAGACGACAAGAGAGCAGAGAAUCUGCUGAUGGAAUUCUCGGGUGCCAA`, “RBNS enrichment (R)” read 1.04.
`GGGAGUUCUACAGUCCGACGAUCCCGGUCGGGGCCAUCCCUCCACACUCUGCAUCCUACCCCACCUACCCAACACACUUUUCCACCUGGGAGCCUGUGCCCUCAGACCGCCCCGCACCAGAGCCACGGGCUGUUGGAAUUCUCGGGUGCCAA`: “RBNS enrichment (R)” 2.34.
`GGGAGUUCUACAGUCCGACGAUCGGGCCACACUGCUGCUGUGCCAAGAAGGUGUACAGCCUCCCCAGGAUGGGGCCUCAUACAACCCUUCAUCUGCACUCAACAUUUAAUCGUGUCCUUGCUGUCUUUUUAUUUGGAAUUCUCGGGUGCCAA`: “RBNS enrichment (R)” 0.367.
For `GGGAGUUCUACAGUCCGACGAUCGAGGCACGAGGUUACUGUGAUUGAUAGGAAAGAUAAAAAUGAUGUCUGUUUUUGUAGACGAAUAACCAUCAACAUGACAACAAAAUUCAUUGGGGUCUACCAGCGUGCAUUGGAAUUCUCGGGUGCCAA`, “RBNS enrichment (R)” read 0.458.
`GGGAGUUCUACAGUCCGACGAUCUAUUGUGUAGACCUUGAAAACCACGGUUUCAGUGAAGAAGGAUUCUGUAGGGUUCACUCUUCUGCAGUCACUUUAGCUUUCUGCAGAAGUCUAGAUUUUAAAUUAACUGUUGGAAUUCUCGGGUGCCAA`: “RBNS enrichment (R)” 0.426.
`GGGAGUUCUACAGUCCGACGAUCGCCGUCGUUUGUUUUCCAUGGAUGCAGAAGUCCAGGUUUCACCAUCUAUUUUCUGUUUUACUCGAUUUUGGUUUGGAGGGAAAAGGGCAUUAGUUUAAAAUGUCGUUUUUUGGAAUUCUCGGGUGCCAA` — result for “RBNS enrichment (R)”: 0.802.
`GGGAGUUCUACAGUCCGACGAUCAUCUGUUAGCUCUUAAGGCUCUCCUCGAAUAUGGCAGCAUUUGGCCGCCACUCCCUACGCCCACCAUUAGGACCAUCUCUGGGUGGAACAUUUUGUGUGUGCAGACAAGGUGGAAUUCUCGGGUGCCAA`: “RBNS enrichment (R)” 0.276.
Under “RBNS enrichment (R)”, `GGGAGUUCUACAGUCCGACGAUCUUGACCUCCCGGCAGGGCAAGGUGAGGAGGCGGACCCAAAGCAGUACCAGCAGGACUUGUUGCCAGUGAUACCAAAACAGACUUUUCCCAAGCAGUGCCUCACAUGUCUGUGGAAUUCUCGGGUGCCAA` is recorded as 0.426.

Sample 3
Target: Sal-like protein 4, full length isoform A (SALL4, Homo sapiens, UniProt Q9UJQ4, residues 1-1053)
Sequence of UniProt Q9UJQ4 (whole entry, looked up): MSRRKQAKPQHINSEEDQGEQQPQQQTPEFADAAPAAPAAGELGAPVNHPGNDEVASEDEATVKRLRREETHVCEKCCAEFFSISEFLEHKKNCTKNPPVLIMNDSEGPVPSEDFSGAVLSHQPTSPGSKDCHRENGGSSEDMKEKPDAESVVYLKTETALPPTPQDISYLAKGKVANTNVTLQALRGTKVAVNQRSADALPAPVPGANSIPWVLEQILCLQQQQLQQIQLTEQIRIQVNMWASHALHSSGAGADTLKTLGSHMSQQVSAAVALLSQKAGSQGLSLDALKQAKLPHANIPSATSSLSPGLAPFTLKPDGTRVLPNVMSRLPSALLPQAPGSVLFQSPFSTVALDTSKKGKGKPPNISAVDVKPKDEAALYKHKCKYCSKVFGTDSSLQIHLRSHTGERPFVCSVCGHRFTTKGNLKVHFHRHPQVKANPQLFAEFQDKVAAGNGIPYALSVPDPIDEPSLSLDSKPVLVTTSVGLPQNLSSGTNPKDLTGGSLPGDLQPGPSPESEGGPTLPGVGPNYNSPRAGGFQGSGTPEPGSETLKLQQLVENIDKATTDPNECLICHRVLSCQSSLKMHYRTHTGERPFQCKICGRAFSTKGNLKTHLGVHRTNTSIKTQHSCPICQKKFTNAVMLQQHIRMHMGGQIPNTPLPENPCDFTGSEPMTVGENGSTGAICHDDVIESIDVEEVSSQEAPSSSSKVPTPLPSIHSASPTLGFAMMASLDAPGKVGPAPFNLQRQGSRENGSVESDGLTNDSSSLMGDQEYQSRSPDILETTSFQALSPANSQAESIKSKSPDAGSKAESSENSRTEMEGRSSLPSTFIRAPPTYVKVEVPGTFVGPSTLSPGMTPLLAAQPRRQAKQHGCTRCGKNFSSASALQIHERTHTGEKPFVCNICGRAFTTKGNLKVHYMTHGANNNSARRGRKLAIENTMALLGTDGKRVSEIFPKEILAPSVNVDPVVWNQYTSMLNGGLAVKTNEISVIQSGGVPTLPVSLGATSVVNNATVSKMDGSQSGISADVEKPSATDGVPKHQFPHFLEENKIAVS
Method: universal PBM
Molecule type: double-stranded DNA, one strand shown
Sample: in vitro
Concentration: 600 nM
Setting: 8-mer, flanks averaged, mean of replicates
Direction: higher = stronger binding
`CGTCGCGA` gave an E-score of -0.201.
With `ATAGTCGC` the E-score was 0.0537.
With `ACGATCTC` the E-score was -0.0924.
`CCCAGATC` gave an E-score of -0.296.
`GAGAACTA` gave an E-score of 0.142.
`CAAGAGAG` gave an E-score of 0.0709.
The E-score of `GCTTGAAA` is reported as 0.131.

Other studies, line by line
`PhoQ, residues 284 288 289 292 302 303 SVHLDV` gave a fold induction of 17.6 (PhoP, residues 12 14 15 18 19 VQALL (Escherichia coli, UniProt P23836); Sort-seq, measured: YFP reporter; E. coli; PhoQ-PhoP variant library, added: 10 µM Mg2+; baseline: high Mg2+ state, higher = stronger signaling).

A few entries again (sample 2):
Under “RBNS enrichment (R)”, `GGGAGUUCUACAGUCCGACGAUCUUGACCUCCCGGCAGGGCAAGGUGAGGAGGCGGACCCAAAGCAGUACCAGCAGGACUUGUUGCCAGUGAUACCAAAACAGACUUUUCCCAAGCAGUGCCUCACAUGUCUGUGGAAUUCUCGGGUGCCAA` is recorded as 0.426.
`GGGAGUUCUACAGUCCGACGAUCGGGCCACACUGCUGCUGUGCCAAGAAGGUGUACAGCCUCCCCAGGAUGGGGCCUCAUACAACCCUUCAUCUGCACUCAACAUUUAAUCGUGUCCUUGCUGUCUUUUUAUUUGGAAUUCUCGGGUGCCAA`: “RBNS enrichment (R)” 0.367.
`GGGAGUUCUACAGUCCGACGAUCUAUUGUGUAGACCUUGAAAACCACGGUUUCAGUGAAGAAGGAUUCUGUAGGGUUCACUCUUCUGCAGUCACUUUAGCUUUCUGCAGAAGUCUAGAUUUUAAAUUAACUGUUGGAAUUCUCGGGUGCCAA`: “RBNS enrichment (R)” 0.426.
